Assay results from different studies.
Compare with care: the assays were run in different laboratories. Several values in a cell are separate wells, animals, samples, runs or records. ± marks the error that the study gave.
T1: riboswitch RNA yjdF aptamer (Bacillus subtilis); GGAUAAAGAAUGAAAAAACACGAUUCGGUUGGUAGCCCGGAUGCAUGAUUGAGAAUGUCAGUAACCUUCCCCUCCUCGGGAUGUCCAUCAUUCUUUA
Chain of UniProt O15305 (whole entry, looked up): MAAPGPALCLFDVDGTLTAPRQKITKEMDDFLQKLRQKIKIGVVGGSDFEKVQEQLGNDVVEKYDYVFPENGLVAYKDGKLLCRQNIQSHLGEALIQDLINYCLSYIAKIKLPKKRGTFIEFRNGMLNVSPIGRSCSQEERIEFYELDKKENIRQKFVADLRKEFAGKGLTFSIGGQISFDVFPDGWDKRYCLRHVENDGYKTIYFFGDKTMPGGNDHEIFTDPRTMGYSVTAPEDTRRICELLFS
Chain of UniProt P51575 (whole entry, unmodified, looked up): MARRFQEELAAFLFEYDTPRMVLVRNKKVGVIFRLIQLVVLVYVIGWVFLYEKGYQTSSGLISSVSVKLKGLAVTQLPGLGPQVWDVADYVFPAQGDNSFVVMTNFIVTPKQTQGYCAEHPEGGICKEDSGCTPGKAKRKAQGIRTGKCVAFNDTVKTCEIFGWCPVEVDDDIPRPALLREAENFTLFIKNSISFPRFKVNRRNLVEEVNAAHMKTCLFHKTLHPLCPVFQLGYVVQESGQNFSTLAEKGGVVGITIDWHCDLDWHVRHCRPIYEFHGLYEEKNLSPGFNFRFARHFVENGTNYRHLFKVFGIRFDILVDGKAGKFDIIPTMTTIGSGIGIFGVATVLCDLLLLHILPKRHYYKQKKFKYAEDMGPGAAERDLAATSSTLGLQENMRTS
Chain of UniProt Q64663 (whole entry, unmodified, looked up): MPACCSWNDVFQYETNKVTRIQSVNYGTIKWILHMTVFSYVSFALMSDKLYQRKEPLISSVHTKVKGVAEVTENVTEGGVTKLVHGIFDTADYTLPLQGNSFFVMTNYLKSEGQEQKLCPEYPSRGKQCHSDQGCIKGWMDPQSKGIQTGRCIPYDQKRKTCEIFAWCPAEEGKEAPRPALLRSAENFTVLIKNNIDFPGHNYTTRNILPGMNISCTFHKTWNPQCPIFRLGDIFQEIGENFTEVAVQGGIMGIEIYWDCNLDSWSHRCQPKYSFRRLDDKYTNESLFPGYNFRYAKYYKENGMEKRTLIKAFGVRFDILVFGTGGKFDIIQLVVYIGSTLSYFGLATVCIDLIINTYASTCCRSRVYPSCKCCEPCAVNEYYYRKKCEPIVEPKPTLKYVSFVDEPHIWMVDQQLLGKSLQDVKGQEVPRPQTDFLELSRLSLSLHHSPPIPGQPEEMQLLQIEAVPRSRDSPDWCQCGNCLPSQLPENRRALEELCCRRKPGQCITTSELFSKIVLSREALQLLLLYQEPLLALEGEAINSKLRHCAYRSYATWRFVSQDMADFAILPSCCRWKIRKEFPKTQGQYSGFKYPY
Chain of UniProt Q13258 (whole entry, unmodified, looked up): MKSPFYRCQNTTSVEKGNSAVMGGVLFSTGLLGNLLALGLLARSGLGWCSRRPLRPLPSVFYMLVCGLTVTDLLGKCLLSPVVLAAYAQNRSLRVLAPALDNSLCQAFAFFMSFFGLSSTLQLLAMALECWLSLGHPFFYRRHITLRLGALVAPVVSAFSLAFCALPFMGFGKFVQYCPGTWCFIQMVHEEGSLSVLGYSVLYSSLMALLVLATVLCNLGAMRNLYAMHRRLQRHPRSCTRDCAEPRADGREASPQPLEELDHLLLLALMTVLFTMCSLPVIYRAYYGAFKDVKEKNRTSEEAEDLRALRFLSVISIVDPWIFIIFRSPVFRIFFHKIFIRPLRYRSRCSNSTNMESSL
Chain of UniProt Q01105 (whole entry, looked up): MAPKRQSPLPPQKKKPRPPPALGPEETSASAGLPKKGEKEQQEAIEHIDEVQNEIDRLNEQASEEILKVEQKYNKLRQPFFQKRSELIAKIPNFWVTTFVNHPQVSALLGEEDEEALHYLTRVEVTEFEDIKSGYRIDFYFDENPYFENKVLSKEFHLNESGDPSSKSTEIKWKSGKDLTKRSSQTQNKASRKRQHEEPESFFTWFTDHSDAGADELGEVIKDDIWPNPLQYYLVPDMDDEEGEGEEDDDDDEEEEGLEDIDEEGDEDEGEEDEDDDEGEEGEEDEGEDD
Chain of UniProt Q8IV63 (whole entry, looked up): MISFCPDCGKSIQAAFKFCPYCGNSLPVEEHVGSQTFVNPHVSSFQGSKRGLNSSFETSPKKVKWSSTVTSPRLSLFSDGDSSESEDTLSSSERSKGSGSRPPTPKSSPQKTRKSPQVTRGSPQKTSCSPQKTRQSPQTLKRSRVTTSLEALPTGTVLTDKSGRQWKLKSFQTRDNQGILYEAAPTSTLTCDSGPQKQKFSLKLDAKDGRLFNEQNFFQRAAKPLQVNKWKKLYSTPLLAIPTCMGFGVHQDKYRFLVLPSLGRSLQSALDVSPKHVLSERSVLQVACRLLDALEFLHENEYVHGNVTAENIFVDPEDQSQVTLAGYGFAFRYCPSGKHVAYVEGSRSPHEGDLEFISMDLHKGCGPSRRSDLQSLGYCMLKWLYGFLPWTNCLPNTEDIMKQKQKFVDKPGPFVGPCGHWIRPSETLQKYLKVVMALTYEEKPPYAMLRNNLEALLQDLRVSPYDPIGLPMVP
Chain of UniProt P25963 (whole entry, unmodified, looked up): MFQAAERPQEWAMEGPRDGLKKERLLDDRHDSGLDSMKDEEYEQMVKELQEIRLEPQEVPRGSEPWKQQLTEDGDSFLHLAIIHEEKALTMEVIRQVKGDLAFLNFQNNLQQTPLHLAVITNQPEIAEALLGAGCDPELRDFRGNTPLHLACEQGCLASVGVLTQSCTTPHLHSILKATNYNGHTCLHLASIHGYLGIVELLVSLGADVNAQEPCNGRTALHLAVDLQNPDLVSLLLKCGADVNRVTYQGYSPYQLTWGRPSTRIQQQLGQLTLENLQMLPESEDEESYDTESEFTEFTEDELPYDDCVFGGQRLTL
Chain of UniProt Q02880 (whole entry, looked up): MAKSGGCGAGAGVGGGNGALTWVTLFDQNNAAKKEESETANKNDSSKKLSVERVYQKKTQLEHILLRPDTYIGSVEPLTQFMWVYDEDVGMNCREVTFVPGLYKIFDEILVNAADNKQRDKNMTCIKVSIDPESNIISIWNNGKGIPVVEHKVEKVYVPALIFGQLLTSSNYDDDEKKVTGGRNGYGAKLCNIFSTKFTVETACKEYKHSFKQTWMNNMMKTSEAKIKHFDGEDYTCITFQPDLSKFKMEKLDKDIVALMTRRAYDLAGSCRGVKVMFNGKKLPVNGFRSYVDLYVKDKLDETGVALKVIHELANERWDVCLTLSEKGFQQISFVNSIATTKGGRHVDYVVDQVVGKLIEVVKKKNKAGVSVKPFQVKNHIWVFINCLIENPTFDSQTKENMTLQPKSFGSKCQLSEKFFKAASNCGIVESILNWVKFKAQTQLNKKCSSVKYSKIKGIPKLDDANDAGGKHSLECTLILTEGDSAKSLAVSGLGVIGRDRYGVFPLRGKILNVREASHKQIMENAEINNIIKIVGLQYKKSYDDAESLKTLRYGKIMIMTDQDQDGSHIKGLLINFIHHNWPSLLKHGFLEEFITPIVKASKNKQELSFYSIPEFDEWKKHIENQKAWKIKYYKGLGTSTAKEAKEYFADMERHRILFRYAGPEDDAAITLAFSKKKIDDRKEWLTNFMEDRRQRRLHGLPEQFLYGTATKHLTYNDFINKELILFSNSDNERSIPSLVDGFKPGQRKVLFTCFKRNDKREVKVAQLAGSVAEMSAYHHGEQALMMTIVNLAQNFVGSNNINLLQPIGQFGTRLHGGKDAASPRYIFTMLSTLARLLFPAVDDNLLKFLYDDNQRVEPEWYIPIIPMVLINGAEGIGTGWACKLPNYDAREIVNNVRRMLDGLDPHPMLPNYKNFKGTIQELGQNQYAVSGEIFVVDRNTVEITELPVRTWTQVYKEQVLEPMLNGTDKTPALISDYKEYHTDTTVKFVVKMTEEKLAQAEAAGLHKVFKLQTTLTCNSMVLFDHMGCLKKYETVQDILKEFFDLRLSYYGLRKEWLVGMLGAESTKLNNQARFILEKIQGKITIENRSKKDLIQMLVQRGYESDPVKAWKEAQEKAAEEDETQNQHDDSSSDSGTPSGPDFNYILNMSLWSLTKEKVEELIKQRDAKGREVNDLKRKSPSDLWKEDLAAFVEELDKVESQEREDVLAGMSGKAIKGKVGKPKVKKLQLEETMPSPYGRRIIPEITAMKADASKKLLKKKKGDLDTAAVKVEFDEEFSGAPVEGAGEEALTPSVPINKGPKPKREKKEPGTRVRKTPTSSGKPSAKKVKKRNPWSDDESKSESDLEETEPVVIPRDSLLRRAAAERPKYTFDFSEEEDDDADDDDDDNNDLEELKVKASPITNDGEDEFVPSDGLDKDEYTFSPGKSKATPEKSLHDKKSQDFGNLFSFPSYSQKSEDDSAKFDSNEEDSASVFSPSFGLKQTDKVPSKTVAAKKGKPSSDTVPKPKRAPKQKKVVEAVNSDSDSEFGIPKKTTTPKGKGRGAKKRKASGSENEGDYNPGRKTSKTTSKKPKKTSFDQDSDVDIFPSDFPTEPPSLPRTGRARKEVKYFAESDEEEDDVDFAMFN
Chain of UniProt P0AC13 (whole entry, unmodified, looked up): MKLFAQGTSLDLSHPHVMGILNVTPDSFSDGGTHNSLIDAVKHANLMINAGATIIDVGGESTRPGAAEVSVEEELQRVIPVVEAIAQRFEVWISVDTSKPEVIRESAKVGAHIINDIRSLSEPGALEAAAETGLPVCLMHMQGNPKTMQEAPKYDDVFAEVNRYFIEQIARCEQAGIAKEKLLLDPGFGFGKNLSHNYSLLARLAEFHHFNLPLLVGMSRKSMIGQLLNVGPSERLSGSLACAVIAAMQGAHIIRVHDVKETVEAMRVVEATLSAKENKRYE

SMILES	target	assay	test system	conditions	how to read	measurement	result
Nc1ncnc2c1ncn2[C@@H]1O[C@H](COP(=O)(O)CP(=O)(O)OP(=O)(O)O)[C@@H](O)[C@H]1O	P2X purinoceptor 1 (P2RX1, Homo sapiens, UniProt P51575, D170A)	saturation binding	HEK293	79 nM		specific binding	507 CCPM and 221 CCPM and 222 CCPM
Cc1cc2nc3[nH]c(=O)[nH]c(=O)c3nc2cc1C	T1, riboswitch RNA yjdF aptamer (Bacillus subtilis)	fluorescence titration		together with: 380 nM lumichrome		Kd	3.4 µM
Cn1c2c(c3ccc(Cl)c(Cl)c31)C(C#N)C1(CCNCC1)NC2=O (racemic)	Serine/threonine-protein kinase VRK3 (VRK3, Homo sapiens, UniProt Q8IV63)	thermal stability, thermal shift		10 µM	higher = stronger binding	delta Tm	0.1 °C
CCCCC[C@H](O)/C=C/[C@H]1C(=O)C[C@H](O)[C@@H]1C/C=C\CCCC(=O)O	PTGDR (Homo sapiens, UniProt Q13258, M112A)	agonist, ONE-GO BRET		0.0003052 µM (306 pM)	relative to: wild-type receptor maximum	Gs protein activation	3.66%
CC(=O)OCc1nn(C)c2nc(N)[nH]c(=O)c2c1=O	folP (Bacteria, UniProt P0AC13)	CETSA HiBiT	Escherichia coli, whole cells	concentration not given	relative to: whole cell over lysate ΔTm	target engagement efficiency	49.1%
COc1cc(Nc2ncc3c(n2)-c2ccc(Cl)cc2C(c2c(F)cccc2OC)=NC3)ccc1C(=O)O	PAK4	kinase activity		1 µM		remaining activity	98%
O=c1nc(SCc2cc(F)cc(C(F)(F)F)c2)nc(SCc2csc3ccc(Cl)cc23)[nH]1	TOP2B (Homo sapiens, UniProt Q02880)	decatenation		31.25 µM		mean decatenated DNA	0.7%
CC[C@@H]1[C@H](F)C(=O)N[C@@H]1COc1nccc2cc(C(N)=O)c(OC)cc12	MASTL (Homo sapiens, UniProt Q96GX5)	ATP-site probe binding, inhibitor, ActivX ATP probe profiling	THP-1 cell lysate	0.2 mM, ATP loop site		inhibition	16.4%
O=C1C[C@@H](c2ccccc2)Oc2cc(O)cc(O)c21	Aryl hydrocarbon receptor (Danio rerio, UniProt Q9YGV3)	reporter gene, agonist, luciferase reporter	ZF-4	10000 µM	relative to: vehicle control	fold change	0.845
CC[C@H](C)[C@H](NC(=O)[C@H](CCCNC(=N)N)NC(=O)[C@H](Cc1c[nH]cn1)NC(=O)[C@H](CCCNC(=N)N)NC(=O)[C@H](CC(=O)O)NC(=O)[C@H](CC(=O)O)NC(=O)[C@@H](NC(=O)[C@H](CC(=O)O)NC(=O)[C@@H]1CCCN1C(=O)[C@@H](N)CC(C)C)[C@@H](C)O)C(=O)N[C@@H](CCC(=O)O)C(=O)N[C@@H](CCC(=O)O)C(=O)N[C@@H](CCCCN)C(=O)N[C@@H](CCCNC(=N)N)C(=O)N[C@@H](CCCCN)C(=O)N[C@@H](CCCNC(=N)N)C(=O)N[C@H](C(=O)N[C@@H](Cc1ccc(O)cc1)C(=O)N[C@@H](CCC(=O)O)C(=O)N[C@H](C(=O)N[C@@H](Cc1ccccc1)C(=O)N[C@@H](CCCCN)C(=O)N[C@@H](CO)C(=O)N[C@H](C(=O)N[C@@H](CCSC)C(=O)N[C@@H](CCCCN)C(=O)N[C@@H](CCCCN)C(=O)N[C@@H](CO)C(=O)N1CCC[C@H]1C(=O)N[C@@H](C)C(=O)N[C@@H](CC(N)=O)C(=O)NCC(=O)N1CCC[C@H]1C(=O)O)[C@@H](C)CC)[C@@H](C)O)[C@@H](C)O	NF-kappa-B inhibitor alpha (Homo sapiens, UniProt P25963)	binding, ITC		pH 7.5, 293 K, 50 mM NaCl		ΔG	-7.5 ± 0.2 kcal/mol
C[C@H](CCC(C)(C)O)[C@H]1CC[C@H]2[C@@H]3CC=C4C[C@@](C)(O)CC[C@]4(C)[C@H]3CC[C@]12C	Glutamate NMDA receptor; GRIN1/GRIN2B (GRIN1/GRIN2B, Homo sapiens, UniProt Q05586+Q13224, M555A)	positive allosteric modulator, two-electrode voltage clamp	Xenopus oocytes expressing GluN1-M555A	10 µM, 0.02% cremophor, together with: 100 µM glutamate and glycine	relative to: without compound	current response	216 ± 24%
O=C(COP(=O)(O)O)[C@@H](O)[C@H](O)[C@H](O)COP(=O)(O)O	PMM2 (Homo sapiens, UniProt O15305)			0.05 mM, unit not given	relative to: activity at 0 mM set to 100	enzyme activity	97.1 and 97.6 and 98.7
CCCCCCCCCCCCC/C=C/[C@@H](O)[C@H](CO)NC(=O)CCCCCCCCCCCCCCCCCCC	Protein SET (SET, Homo sapiens, UniProt Q01105)	lipid binding, GFP pull-down LC-MS/MS	A549 overexpressing GFP-tagged protein	ER-targeted construct	relative to: eluate plus flow-through	lipid fraction bound	14%
Nc1ncnc2c1ncn2[C@@H]1O[C@H](COP(=O)(O)OP(=O)(O)OP(=O)(O)O)[C@@H](O)[C@H]1O	P2X purinoceptor 7 (P2rx7, Rattus norvegicus, UniProt Q64663, I214A/Q143A/R125A)	ion current, agonist, two-electrode voltage clamp	Xenopus laevis oocytes	30 µM, triple mutant	relative to: 100 µM compound response	normalized current	0.2 and 0.23 and 0.29
CC1CCCN1c1nccc(-c2cnn3ncccc23)n1 (stereo not drawn)	ABL1 (Homo sapiens, UniProt P00519, Q252H)	KINOMEscan		1 µM		remaining binding	100%

For quick reference, copied from above:
SMILES	target	assay	test system	conditions	how to read	measurement	result
CC(=O)OCc1nn(C)c2nc(N)[nH]c(=O)c2c1=O	folP (Bacteria, UniProt P0AC13)	CETSA HiBiT	Escherichia coli, whole cells	concentration not given	relative to: whole cell over lysate ΔTm	target engagement efficiency	49.1%
COc1cc(Nc2ncc3c(n2)-c2ccc(Cl)cc2C(c2c(F)cccc2OC)=NC3)ccc1C(=O)O	PAK4	kinase activity		1 µM		remaining activity	98%
